Experimental data gathered from unrelated publications.
Each numbered part is a random draw from the data of one study; scales do not carry over between parts. “And” joins repeats or separate records; there may be more than shown.
Sequence of UniProt Q9UHD2 (whole entry, looked up): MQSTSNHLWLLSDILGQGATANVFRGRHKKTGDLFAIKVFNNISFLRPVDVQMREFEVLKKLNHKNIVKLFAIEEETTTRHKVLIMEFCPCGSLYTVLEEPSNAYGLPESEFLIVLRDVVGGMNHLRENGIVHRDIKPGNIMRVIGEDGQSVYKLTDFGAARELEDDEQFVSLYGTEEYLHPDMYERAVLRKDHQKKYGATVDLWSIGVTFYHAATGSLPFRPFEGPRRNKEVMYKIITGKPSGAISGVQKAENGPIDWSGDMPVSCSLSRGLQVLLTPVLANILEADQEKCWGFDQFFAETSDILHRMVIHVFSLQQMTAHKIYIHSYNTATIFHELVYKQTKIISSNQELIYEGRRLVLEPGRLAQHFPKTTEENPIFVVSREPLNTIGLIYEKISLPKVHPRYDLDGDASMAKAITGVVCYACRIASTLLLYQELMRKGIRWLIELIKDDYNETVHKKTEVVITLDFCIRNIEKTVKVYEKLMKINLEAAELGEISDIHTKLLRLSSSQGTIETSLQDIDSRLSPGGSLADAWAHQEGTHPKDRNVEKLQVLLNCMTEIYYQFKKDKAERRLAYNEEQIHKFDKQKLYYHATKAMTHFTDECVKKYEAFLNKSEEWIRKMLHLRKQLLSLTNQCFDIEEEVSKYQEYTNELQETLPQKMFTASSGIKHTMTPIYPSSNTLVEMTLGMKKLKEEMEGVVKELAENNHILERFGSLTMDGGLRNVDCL
Sequence of UniProt Q02763 (whole entry, looked up): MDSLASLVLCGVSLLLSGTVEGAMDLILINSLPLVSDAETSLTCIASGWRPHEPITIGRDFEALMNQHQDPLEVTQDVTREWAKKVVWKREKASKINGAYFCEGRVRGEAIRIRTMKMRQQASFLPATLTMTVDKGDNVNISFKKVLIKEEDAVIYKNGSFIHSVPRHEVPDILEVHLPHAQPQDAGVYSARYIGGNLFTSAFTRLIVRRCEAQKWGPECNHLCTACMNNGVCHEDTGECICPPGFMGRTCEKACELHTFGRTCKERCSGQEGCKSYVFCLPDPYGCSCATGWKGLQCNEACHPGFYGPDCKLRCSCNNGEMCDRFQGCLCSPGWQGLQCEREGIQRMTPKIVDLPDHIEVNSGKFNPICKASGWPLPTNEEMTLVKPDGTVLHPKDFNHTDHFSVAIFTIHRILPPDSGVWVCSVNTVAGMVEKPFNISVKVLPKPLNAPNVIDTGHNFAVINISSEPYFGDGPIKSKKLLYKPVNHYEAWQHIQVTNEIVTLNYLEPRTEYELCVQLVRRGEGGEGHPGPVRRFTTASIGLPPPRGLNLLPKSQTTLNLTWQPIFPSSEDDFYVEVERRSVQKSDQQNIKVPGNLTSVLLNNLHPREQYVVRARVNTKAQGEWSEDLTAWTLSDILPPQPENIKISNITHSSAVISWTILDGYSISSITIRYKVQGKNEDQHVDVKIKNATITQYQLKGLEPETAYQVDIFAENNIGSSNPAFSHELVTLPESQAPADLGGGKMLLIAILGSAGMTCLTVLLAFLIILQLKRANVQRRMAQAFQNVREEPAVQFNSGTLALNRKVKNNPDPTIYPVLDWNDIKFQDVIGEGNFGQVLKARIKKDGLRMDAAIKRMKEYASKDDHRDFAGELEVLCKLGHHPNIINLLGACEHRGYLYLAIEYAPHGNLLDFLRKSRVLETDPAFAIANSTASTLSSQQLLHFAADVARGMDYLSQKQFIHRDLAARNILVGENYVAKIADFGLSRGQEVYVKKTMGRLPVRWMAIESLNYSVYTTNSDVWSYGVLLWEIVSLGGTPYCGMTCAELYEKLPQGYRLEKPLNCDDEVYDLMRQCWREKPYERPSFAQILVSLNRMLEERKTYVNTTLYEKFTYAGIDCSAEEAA
Sequence of UniProt P22607 (whole entry, looked up): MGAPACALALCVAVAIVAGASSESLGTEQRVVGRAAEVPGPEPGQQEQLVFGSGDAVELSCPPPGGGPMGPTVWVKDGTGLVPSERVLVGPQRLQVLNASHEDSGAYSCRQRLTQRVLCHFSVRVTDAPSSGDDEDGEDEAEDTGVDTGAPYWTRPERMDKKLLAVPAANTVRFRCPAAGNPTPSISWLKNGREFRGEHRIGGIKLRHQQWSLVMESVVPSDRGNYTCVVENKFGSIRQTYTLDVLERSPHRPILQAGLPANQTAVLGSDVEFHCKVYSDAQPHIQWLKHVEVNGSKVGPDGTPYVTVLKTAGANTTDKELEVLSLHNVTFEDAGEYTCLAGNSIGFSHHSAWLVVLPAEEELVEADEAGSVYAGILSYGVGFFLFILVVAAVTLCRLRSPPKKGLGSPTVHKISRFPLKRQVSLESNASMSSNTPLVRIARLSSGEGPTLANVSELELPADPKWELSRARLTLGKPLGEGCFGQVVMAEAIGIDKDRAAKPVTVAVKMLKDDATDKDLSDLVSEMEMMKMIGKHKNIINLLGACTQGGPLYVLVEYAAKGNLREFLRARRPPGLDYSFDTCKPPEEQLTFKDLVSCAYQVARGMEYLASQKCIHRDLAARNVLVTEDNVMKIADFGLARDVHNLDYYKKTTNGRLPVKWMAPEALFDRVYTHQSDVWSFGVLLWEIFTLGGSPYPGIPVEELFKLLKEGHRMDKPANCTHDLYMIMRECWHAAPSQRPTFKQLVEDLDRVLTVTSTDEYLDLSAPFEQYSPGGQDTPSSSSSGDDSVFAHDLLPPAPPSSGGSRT
Sequence of UniProt Q6PHR2 (whole entry, looked up): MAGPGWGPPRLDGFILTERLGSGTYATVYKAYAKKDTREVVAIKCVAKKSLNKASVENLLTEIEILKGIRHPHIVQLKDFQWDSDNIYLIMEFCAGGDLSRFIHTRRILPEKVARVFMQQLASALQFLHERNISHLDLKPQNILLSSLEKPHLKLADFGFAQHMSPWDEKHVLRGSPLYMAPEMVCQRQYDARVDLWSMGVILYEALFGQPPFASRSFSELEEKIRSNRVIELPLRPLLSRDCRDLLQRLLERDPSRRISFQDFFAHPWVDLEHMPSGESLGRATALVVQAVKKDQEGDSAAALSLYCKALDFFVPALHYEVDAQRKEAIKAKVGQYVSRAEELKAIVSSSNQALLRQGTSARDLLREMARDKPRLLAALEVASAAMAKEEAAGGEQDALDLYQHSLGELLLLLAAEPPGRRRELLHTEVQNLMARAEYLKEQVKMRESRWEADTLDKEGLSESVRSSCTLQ
Sequence of UniProt P20794 (whole entry, looked up): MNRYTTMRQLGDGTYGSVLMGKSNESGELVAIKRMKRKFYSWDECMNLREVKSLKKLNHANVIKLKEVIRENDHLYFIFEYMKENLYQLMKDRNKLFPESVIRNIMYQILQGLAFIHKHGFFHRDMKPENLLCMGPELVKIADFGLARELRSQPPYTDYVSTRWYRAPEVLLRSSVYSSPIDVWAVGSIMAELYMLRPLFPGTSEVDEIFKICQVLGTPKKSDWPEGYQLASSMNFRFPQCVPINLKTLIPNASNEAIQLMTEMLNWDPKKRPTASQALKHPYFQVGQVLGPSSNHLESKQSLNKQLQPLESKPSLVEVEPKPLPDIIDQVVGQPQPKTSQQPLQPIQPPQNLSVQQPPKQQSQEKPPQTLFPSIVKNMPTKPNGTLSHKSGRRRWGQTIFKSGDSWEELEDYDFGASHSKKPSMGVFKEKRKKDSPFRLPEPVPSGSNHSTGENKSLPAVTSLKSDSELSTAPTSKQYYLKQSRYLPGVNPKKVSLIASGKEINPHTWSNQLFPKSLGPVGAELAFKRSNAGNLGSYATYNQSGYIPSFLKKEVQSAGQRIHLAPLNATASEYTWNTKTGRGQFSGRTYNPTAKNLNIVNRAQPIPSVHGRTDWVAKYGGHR
Sequence of UniProt P54753 (whole entry, looked up): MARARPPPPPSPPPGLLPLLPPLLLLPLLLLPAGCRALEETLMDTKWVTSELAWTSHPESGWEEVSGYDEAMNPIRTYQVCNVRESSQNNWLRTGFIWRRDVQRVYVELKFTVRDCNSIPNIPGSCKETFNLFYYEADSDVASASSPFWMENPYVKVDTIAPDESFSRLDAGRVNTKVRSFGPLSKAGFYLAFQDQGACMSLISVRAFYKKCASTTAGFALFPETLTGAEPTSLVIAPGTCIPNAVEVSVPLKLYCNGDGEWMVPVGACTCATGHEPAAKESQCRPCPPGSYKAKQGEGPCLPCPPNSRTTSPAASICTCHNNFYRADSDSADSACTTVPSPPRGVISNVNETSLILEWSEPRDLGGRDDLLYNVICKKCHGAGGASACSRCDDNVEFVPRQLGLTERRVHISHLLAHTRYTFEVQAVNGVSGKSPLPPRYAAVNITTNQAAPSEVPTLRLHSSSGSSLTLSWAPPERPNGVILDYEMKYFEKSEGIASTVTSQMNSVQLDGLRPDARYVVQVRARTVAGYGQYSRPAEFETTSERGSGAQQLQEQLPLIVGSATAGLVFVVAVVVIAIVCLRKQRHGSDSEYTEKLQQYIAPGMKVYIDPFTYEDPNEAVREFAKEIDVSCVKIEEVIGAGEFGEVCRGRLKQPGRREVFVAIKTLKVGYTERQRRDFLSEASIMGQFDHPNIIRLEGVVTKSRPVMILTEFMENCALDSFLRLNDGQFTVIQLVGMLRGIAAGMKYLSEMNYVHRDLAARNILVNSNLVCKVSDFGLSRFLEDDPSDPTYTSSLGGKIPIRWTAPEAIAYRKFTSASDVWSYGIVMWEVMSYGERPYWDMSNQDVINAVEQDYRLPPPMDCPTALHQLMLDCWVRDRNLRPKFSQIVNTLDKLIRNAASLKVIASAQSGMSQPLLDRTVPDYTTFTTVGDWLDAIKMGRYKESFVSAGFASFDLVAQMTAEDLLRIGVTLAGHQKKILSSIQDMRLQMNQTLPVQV
Sequence of UniProt Q9HC98 (whole entry, looked up): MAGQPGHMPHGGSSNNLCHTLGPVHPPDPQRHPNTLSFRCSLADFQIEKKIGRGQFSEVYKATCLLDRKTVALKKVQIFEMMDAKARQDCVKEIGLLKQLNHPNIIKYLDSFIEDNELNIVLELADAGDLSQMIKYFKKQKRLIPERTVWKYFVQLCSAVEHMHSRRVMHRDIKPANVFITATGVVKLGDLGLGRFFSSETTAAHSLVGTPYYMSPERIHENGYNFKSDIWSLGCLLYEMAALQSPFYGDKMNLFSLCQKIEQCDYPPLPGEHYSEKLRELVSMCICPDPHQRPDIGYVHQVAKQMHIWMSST

Sample 1
Cell line: HaCaT
Concentration: 100 µM
Time: 18 h
Compound	viability [%]
CCC1(c2ccccc2)C(=O)NCNC1=O	114
Nc1cccc2c1C(=O)N(C1CCC(=O)NC1=O)C2=O (stereo not shown)	116
O=c1c(-c2ccc(O)cc2)coc2c([C@@H]3O[C@H](CO)[C@@H](O)[C@H](O)[C@H]3O)c(O)ccc12	110

Sample 2
SMILES: CC1=C(C#N)[C@@H](c2ccc3[nH]nc(C)c3c2)C(C#N)=C(c2ccc(Cl)cc2)N1
Technique: competition with immobilised ligand
Concentration: 1 µM
target	effect on	remaining binding
MAK (Homo sapiens, UniProt P20794)	binding	85.1%
EPHB3 (Homo sapiens, UniProt P54753)	cell-free assay	100%
BUB1 (Homo sapiens, UniProt O43683)	cell-free assay	100%
IGF1R (Homo sapiens, UniProt P08069)	cell-free assay	100%

Sample 3
Structure (SMILES): CCc1[nH]c(-c2ccc(OC)cc2)nc1-c1ccncc1
Effect on: enzyme activity
Action: inhibitor
Concentration: 0.5 µM
Reference: control
target	remaining activity [%]
MAP3K5 (Homo sapiens, UniProt Q99683)	105
JAK3 (Homo sapiens, UniProt P52333)	96.1
TEK (Homo sapiens, UniProt Q02763)	99.1
RPS6KA2 (Homo sapiens, UniProt Q15349)	99.1
EPHA3 (Homo sapiens, UniProt P29320)	100
ULK3 (Homo sapiens, UniProt Q6PHR2)	83.4
FRK (Homo sapiens, UniProt P42685)	101
ACVR1B (Homo sapiens, UniProt P36896)	86.5
MST1R (Homo sapiens, UniProt Q04912)	101
WEE1 (Homo sapiens, UniProt P30291)	89.1
FGFR3 (Homo sapiens, UniProt P22607)	99.8
MAPK3 (Homo sapiens, UniProt P27361)	99.9
NEK6 (Homo sapiens, UniProt Q9HC98)	95.3
TBK1 (Homo sapiens, UniProt Q9UHD2)	99.7

Sample 4
Cell line: mouse MPNST tumor cells
Technique: high-content nuclear imaging
Item: cell number
Concentration: 10 µM
Time: 12 h
Setting: mean of 2 replicates
Reference: plate mean
Reading: higher = more cells
Structure (SMILES)	nuclei count
CCCCN1CCCCC1C(=O)Nc1c(C)cccc1C (stereo not shown)	0.265 z-score
CCCC1O[C@@H]2C[C@H]3[C@@H]4CCC5=CC(=O)C=C[C@]5(C)[C@H]4[C@@H](O)C[C@]3(C)[C@]2(C(=O)CO)O1 (stereo partly shown)	4.02 z-score and 0.163 z-score
c1ccc(-c2oc3ncnc(NC[C@@H]4CCCO4)c3c2-c2ccccc2)cc1	1.51 z-score
COc1ccc(-n2cnnn2)cc1CN[C@H]1CCCN[C@H]1c1ccccc1	2.03 z-score

Single results of other studies
Species: mouse
Matrix: microsomes or S9
Concentration: 2 µM
Time: 0.5 h
Compound	remaining compound [%]
Cc1cc(C)c(S(=O)(=O)N[C@H](CO)C(C)C)c(C)c1	< 1
CN(/C=N/c1c(F)c(F)cc(F)c1F)/C=N/c1c(F)c(F)cc(F)c1F	3.7
CN1O[C@H](COc2ccc(O/C(F)=C\c3ccccc3)cc2)C[C@@]1(Cn1cncn1)c1ccccc1	73.7

For quick reference, copied from above (sample 3):
target	remaining activity [%]
JAK3 (Homo sapiens, UniProt P52333)	96.1
ULK3 (Homo sapiens, UniProt Q6PHR2)	83.4
EPHA3 (Homo sapiens, UniProt P29320)	100
FRK (Homo sapiens, UniProt P42685)	101
